Results gathered from unrelated publications.
Compare with care: the assays were run in different laboratories. Numbers after ± are the reported error.
B1: Flrt3 29-359 (Mus musculus, UniProt Q8BGT1); chain KSCPSVCRCDAGFIYCNDRSLTSIPVGIPEDATTLYLQNNQINNVGIPSDLKNLLKVQRIYLYHNSLDEFPTNLPKYVKELHLQENNIRTITYDSLSKIPYLEELHLDDNSVSAVSIEEGAFRDSNYLRLLFLSRNHLSTIPGGLPRTIEELRLDDNRISTISSPSLHGLTSLKRLVLDGNLLNNHGLGDKVFFNLVNLTELSLVRNSLTAAPVNLPGTSLRKLYLQDNHINRVPPNAFSYLRQLYRLDMSNNNLSNLPQGIFDDLDNITQLILRNNPWYCGCKMKWVRDWLQSLPVKVNVRGLMCQAPEKVRGMAIKDLSAELFDCKDSG
B2: BRAF kinase 448-723 K723G/P722S/S720E/L716E/S713E/Q709R/L706S/A688R/Y673S/K630S/V600E/L588N/Q562R/I551K (Homo sapiens, UniProt P15056); sequence looked up; chain DDWEIPDGQITVGQRIGSGSFGTVYKGKWHGDVAVKMLNVTAPTPQQLQAFKNEVGVLRKTRHVNILLFMGYSTKPQLAIVTQWCEGSSLYHHLHASETKFEMKKLIDIARQTARGMDYLHAKSIIHRDLKSNNIFLHEDNTVKIGDFGLATEKSRWSGSHQFEQLSGSILWMAPEVIRMQDSNPYSFQSDVYAFGIVLYELMTGQLPYSNINNRDQIIFMVGRGSLSPDLSKVRSNCPKRMKRLMAECLKKKRDERPSFPRILAEIEELARELSG
B3: IGSF10 1646-1933 (Homo sapiens, UniProt Q6WRI0); sequence looked up; chain EKPRIVGGKAASFTIPANSDAFLPCEAVGNPLPTIHWTRVPSGLDLSKRKQNSRVQVLPNGTLSIQRVEIQDRGQYLCSASNLFGTDHLHVTLSVVSYPPRILERRTKEITVHSGSTVELKCRAEGRPSPTVTWILANQTVVSESSQGSRQAVVTVDGTLVLHNLSIYDRGFYKCVASNPGGQDSLLVKIQVIAAPPVILEQRRQVIVGTWGESLKLPCTAKGTPQPSVYWVLSDGTEVKPLQFTNSKLFLFSNGTLYIRNLASSDRGTYECIATSSTGSERRVVMLT
B4: C1S 438-688 S632A (Homo sapiens, UniProt P09871); chain IIGGSDADIKNFPWQVFFDNPWAGGALINEYWVLTAAHVVEGNREPTMYVGSTSVQTSRLAKSKMLTPEHVFIHPGWKLLEVPEGRTNFDNDIALVRLKDPVKMGPTVSPICLPGTSSDYNLMDGDLGLISGWGRTEKRDRAVRLKAARLPVAPLRKCKEVKVEKPTADAEAYVFTPNMICAGGEKGMDSCKGDAGGAFAVQDPNDKTKFYAAGLVSWGPQCGTYGLYTRVKNYVDWIMKTMQENSTPRED
B5: Pigr 19-135 (Mus musculus, UniProt O70570); chain KSPIFGPQEVSSIEGDSVSITCYYPDTSVNRHTRKYWCRQGASGMCTTLISSNGYLSKEYSGRANLINFPENNTFVINIEQLTQDDTGSYKCGLGTSNRGLSFDVSLEVSQVPELPS
Chain of UniProt P07949 (whole entry, looked up): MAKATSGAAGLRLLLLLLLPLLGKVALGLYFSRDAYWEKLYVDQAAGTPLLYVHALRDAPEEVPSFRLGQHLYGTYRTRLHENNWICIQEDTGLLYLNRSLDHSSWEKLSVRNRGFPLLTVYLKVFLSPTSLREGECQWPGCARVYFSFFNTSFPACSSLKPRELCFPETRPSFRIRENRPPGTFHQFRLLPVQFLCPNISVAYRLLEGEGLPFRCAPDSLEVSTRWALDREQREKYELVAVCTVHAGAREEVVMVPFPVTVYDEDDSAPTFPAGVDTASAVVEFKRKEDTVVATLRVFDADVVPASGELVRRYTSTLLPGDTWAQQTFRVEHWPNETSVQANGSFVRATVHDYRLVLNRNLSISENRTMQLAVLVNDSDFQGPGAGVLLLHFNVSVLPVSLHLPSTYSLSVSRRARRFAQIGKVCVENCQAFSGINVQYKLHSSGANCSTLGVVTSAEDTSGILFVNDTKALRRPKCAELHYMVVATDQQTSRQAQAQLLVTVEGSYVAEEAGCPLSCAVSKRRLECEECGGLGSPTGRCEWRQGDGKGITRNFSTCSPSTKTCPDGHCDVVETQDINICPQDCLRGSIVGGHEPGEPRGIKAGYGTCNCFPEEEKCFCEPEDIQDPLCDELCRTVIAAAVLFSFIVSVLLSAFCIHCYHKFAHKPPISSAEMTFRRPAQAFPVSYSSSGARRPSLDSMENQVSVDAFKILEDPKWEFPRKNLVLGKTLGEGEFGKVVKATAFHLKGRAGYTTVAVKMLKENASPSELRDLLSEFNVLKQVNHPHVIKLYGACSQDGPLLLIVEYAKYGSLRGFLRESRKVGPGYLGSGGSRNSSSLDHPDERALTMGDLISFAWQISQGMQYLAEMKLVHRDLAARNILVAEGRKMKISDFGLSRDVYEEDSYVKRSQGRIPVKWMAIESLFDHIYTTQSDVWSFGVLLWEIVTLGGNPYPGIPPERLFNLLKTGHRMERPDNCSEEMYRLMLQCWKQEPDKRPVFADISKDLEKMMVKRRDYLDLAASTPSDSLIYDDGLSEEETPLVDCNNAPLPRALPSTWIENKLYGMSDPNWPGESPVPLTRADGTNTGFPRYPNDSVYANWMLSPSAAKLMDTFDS
Chain of UniProt P26039 (whole entry, looked up): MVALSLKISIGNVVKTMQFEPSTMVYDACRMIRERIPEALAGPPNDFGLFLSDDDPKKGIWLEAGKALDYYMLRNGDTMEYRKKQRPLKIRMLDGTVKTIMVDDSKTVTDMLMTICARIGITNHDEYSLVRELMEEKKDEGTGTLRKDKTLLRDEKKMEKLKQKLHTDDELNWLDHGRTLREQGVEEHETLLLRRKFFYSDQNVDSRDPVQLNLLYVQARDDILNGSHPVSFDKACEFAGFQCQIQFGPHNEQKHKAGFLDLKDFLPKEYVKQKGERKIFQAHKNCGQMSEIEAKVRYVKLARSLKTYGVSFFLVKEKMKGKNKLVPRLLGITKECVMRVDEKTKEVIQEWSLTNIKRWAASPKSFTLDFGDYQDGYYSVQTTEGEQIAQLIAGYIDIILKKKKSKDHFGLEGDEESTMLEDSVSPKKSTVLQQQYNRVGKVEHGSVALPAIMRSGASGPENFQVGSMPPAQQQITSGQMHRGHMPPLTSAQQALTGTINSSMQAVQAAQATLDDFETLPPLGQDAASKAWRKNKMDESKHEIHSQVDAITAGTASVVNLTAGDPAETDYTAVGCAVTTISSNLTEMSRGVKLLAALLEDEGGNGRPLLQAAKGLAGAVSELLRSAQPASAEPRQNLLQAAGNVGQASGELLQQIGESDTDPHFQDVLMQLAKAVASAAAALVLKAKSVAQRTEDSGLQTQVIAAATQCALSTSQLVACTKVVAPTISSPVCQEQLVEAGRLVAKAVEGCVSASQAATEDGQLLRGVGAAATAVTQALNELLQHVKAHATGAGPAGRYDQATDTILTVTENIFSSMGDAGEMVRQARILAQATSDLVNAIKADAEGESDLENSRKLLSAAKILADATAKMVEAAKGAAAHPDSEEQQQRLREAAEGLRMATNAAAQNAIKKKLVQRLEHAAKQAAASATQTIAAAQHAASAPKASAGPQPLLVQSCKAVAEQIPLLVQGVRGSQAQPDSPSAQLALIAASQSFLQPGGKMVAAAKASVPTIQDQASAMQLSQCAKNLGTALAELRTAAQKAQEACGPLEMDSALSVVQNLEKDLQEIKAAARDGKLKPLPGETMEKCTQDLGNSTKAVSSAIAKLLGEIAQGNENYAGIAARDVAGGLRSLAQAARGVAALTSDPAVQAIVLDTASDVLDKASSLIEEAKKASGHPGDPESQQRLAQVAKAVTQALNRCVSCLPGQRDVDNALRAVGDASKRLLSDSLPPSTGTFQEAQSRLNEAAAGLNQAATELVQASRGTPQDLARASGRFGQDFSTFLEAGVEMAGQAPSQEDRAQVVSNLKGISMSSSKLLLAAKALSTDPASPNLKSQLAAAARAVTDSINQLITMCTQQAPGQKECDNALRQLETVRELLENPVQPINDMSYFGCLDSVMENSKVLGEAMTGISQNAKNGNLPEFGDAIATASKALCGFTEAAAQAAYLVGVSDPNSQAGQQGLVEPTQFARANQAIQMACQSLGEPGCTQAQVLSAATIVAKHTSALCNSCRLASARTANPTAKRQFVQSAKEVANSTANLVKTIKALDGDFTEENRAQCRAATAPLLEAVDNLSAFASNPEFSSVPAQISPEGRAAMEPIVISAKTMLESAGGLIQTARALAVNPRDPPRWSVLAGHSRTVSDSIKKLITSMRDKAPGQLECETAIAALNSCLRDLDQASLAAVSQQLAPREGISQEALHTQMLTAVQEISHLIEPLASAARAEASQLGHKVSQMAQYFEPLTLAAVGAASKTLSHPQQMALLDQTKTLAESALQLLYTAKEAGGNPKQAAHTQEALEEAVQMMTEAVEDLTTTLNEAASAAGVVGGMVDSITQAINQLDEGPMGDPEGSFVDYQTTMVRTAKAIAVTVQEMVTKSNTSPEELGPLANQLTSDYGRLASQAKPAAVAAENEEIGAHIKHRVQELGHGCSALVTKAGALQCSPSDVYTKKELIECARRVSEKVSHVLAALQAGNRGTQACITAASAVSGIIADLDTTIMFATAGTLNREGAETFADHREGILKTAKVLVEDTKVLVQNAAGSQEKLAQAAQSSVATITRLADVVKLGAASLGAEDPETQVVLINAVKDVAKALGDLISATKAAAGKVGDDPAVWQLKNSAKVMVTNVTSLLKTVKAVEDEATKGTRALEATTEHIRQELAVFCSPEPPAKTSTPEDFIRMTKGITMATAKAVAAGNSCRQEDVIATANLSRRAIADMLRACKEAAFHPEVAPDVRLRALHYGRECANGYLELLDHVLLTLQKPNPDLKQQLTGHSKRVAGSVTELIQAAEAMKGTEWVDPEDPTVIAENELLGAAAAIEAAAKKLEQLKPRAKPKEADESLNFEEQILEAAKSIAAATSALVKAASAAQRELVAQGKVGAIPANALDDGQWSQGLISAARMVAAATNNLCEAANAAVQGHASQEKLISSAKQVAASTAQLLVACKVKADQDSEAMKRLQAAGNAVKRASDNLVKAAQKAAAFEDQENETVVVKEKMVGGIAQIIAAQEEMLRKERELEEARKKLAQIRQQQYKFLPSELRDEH
Chain of UniProt P05155 (whole entry, unmodified, looked up): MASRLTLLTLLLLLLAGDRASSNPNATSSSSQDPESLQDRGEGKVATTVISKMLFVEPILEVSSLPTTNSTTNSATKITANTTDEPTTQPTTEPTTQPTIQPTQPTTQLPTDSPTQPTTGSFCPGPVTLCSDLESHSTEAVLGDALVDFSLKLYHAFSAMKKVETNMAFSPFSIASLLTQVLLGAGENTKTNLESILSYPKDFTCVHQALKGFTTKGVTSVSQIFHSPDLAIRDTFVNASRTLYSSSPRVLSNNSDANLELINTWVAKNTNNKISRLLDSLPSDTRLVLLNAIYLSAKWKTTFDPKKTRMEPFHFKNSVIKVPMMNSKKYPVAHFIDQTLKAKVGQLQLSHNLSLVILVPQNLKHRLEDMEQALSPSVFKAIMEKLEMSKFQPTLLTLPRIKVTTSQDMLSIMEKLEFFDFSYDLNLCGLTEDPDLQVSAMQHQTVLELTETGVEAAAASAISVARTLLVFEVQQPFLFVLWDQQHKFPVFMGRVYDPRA
Chain of UniProt P38646 (whole entry, unmodified, looked up): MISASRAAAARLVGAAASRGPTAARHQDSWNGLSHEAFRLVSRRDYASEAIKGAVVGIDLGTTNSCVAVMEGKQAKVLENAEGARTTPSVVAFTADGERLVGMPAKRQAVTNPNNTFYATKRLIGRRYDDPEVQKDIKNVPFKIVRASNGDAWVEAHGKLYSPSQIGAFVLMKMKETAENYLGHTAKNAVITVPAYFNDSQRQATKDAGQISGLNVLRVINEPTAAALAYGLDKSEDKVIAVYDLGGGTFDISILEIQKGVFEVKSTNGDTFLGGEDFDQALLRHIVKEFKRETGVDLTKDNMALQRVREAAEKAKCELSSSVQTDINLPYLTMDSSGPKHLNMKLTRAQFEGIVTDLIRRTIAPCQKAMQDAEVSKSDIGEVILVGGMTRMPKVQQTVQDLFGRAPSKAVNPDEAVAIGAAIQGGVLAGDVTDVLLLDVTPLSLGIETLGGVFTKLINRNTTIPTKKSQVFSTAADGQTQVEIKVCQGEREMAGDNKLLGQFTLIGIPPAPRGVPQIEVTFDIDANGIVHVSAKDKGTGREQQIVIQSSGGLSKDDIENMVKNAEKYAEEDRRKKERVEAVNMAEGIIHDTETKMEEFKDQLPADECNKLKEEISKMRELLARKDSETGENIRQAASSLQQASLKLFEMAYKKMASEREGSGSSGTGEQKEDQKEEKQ
Chain of UniProt Q9NZQ7 (whole entry, looked up): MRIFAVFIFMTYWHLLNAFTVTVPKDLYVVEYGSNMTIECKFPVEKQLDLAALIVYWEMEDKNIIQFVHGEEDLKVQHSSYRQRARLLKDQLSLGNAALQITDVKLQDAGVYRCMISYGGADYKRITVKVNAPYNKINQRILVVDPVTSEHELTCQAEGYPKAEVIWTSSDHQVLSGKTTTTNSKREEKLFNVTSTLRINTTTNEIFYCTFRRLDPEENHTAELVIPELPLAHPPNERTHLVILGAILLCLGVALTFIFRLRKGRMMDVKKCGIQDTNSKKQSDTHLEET

For `CALLLSAPRR (GOT2 (Gallus gallus); fluorescein label)`, the Kd was 34500 nM (HSPA9 47-600 (Homo sapiens, UniProt P38646); FP; peptide).
For `PRPRPRPRPRPRPRPRPRPRPRPRPRPRPRPRPRPRPRPR ((PR)20 20 repeats; TAMRA label N-terminal)`, the Kd was 65.6 ± 11.3 nM (FUS 215-526 (Homo sapiens, UniProt P35637); fluorescence polarisation; peptide).
`PMESGICTIV` has a binding intensity of -0.0577 (human SCRIB PDZ3-4 tandem (MBP fusion); automated holdup; peptide, purified PDZ protein; concentration not given, unit not given; relative to: biotin control resin, higher = stronger binding).
`PKPRPPRPLPVAP (PIK3R1 87-99 (Homo sapiens))` has a Kd of 37600 ± 6100 nM (FYN 82-144 (Homo sapiens, UniProt P06241); MST; peptide).
With `B1 (Flrt3 29-359)` the Kd was 2000 nM (Unc5D 31-382 (Rattus norvegicus, UniProt F1LW30); SPR).
Under “normalised SPR binding response”, `GSGAGICTIV` is recorded as 12.3 normalised RU (human MAGI1-3/6 PDZ construct (MBP fusion); surface plasmon resonance; peptide; concentration not given; higher = stronger binding).
`CDH2 extracellular domain (Homo sapiens)` gave a Kd of 18.8 nM (FGB residues 15-66, dimer (Homo sapiens); ELISA; with: EDTA).
The MIC of `colistin` is reported as at most 0.5 µg/mL (Escherichia coli; clinical isolate RKI 867/14).
With `KLLMIIHDRREFAKFEEERMNAKWDTGENPIYKSAVTTVVNPKYEGK (ITGB1 752-798 K768E/K770R (Homo sapiens, UniProt P05556-1); sequence looked up)` the Kd was 253000 nM (Tln1 309-405 (Mus musculus, UniProt P26039); NMR titration).
`B2` has a Kd of 32.4 ± 1.34 nM (MAP2K1 (Homo sapiens, UniProt Q02750); BLI).
For `B3 (IGSF10 1646-1933)`, the Kd was 56 nM (RET 29-635 (Homo sapiens, UniProt P07949); ITC).
`B4 (C1S 438-688 S632A)` gave a Kd of 4700 nM (SERPING1 111-500 K328A/K329A (Homo sapiens, UniProt P05155); SPR; with: Ca2+).
`B5 (Pigr 19-135)` has a Kd of 1100 nM (IgA Fc/J chain CH2-CH3 domains Y135A (Mus musculus); SPR).
`WHRSYYTWN (TR3 peptide)` gave a Kd of 298 nM (CD274 19-238 (Homo sapiens, UniProt Q9NZQ7); SPR; peptide).

For quick reference, copied from above:
For `CALLLSAPRR (GOT2 (Gallus gallus); fluorescein label)`, the Kd was 34500 nM (HSPA9 47-600 (Homo sapiens, UniProt P38646); FP; peptide).
